# Results of several laboratories.
# Lines come from different studies, so protocols differ. “And” joins repeats or separate records; there may be more than shown. ± marks the error that the study gave.
# Spike glycoprotein: Spike glycoprotein (Severe acute respiratory syndrome coronavirus 2, UniProt P0DTC2)
# rep main protease: Replicase polyprotein 1ab, main protease (rep, Severe acute respiratory syndrome coronavirus 2, UniProt P0DTD1)
SMILES,target or system,assay,test system,conditions,scale,quantity,value
COc1c(/C=C/C(=O)c2ccc(O)cc2)ccc(O)c1O,Spike glycoprotein,"binding, biolayer interferometry",,,,koff,0.0134 s⁻¹
O=C(c1ccc(=O)[nH]c1)N1CCCC[C@H](C2CN(C(=O)c3cncc4[nH]ccc34)C2)C1,rep main protease,"enzyme activity, inhibitor",,5 µM,,inhibition,15.8%
CC1(C)C=Cc2cc3ccc(=O)oc3cc2O1,rep main protease,"reporter gene (mKate2), inhibitor",,20 µM,,inhibition,-0.339%
CC[C@H](C)[C@H](NC(=O)[C@@H]1CCCN1C(=O)[C@H](C)NC(=O)[C@@H]1CSSC[C@@H]2NC(=O)[C@H](CC(=O)O)NC(=O)[C@H](CCCNC(=N)N)NC(=O)[C@H](CCC(=O)O)NC(=O)[C@H](CCCNC(=N)N)NC(=O)CNC(=O)[C@H](CC(=O)O)NC(=O)[C@@H]3CSSC[C@H](NC(=O)[C@H](CCC(=O)O)NC(=O)[C@H](CC(C)C)NC(=O)CNC(=O)[C@H](C)NC(=O)[C@H](CSSC[C@H](NC(=O)[C@H](Cc4ccccc4)NC(=O)[C@@H](N)CO)C(=O)N[C@@H](CC(C)C)C(=O)N[C@@H](C(C)C)C(=O)N[C@@H](CCCCN)C(=O)N[C@@H](Cc4c[nH]c5ccccc45)C(=O)N[C@@H](CCCCN)C(=O)N[C@@H](CCC(N)=O)C(=O)N3)NC2=O)C(=O)N[C@@H](Cc2c[nH]c3ccccc23)C(=O)N[C@@H](CCCCN)C(=O)N[C@@H](CCCNC(=N)N)C(=O)N[C@@H](CO)C(=O)NCC(=O)N[C@@H](CC(N)=O)C(=O)N[C@@H](CCCCN)C(=O)N[C@@H](CO)C(=O)N[C@@H](CO)C(=O)N[C@@H](C(C)C)C(=O)N1)C(=O)N[C@H](C(=O)O)[C@@H](C)O,"Acid-sensing ion channel 1 (ASIC1, Homo sapiens, UniProt P78348, F352A)",outside-out patch clamp,HEK-293T ASIC1a knockout,"1 µM, F352A mutant",,rise time,13 ± 4 ms
CC(C)(C)[C@H](NC(=O)C(F)(F)F)C(=O)N1C[C@H]2[C@@H]([C@H]1C(=O)N[C@H](C#N)C[C@@H]1CCNC1=O)C2(C)C,,,"human, fasted","oral, 500 mg single dose, 28 days, no ritonavir",,participants with severe adverse events,0%
Nc1ncnc2c1ccn2C1CCN(C(=O)c2ccc(S(=O)(=O)F)cc2)CC1,"Calmodulin-sensitive adenylate cyclase (cya, Bacillus anthracis, UniProt P40136)",,,,,kinact,0.0047 s⁻¹
CCN(CC)c1nc(C)cc(OP(=S)(OC)OC)n1,"uncharacterized protein (Anopheles coluzzii, UniProt A0A6E8VQK1)","enzyme activity, inhibitor",Sf9 cell homogenate,"2.294 µM, 0.1667 h, with: α-naphthyl acetate substrate",relative to: no inhibitor,remaining activity,108%
Cn1cnc(Cn2c(=O)[nH]/c(=N\c3cc4cn(C)nc4cc3Cl)n(Cc3cc(F)c(F)cc3F)c2=O)n1,,,"human, mild renal impairment","oral, 375 mg",,"treatment-related TEAE, Moderate severity",0%
CSCC[C@H](NC(=O)[C@H](CCCNC(=N)N)NC(=O)[C@H](Cc1ccccc1)NC(=O)[C@H](CS)NC(=O)[C@H](C)NC(=O)[C@@H](NC(=O)[C@@H](NC(=O)[C@H](C)NC(=O)[C@H](CCCNC(=N)N)NC(=O)[C@H](CCCNC(=N)N)NC(=O)[C@H](CCCNC(=N)N)NC(=O)[C@H](CCC(N)=O)NC(=O)[C@H](CCCCN)NC(=O)[C@H](CO)NC(=O)[C@H](CC(C)C)NC(=O)[C@H](CC(C)C)NC(=O)[C@H](CCCCN)NC(=O)[C@H](Cc1c[nH]cn1)NC(=O)[C@H](Cc1c[nH]c2ccccc12)NC(=O)[C@@H](NC(=O)[C@H](C)NC(=O)[C@H](CCCCN)NC(=O)[C@H](CCCCN)NC(=O)[C@H](CO)NC(=O)[C@H](CCCCN)NC(C)=O)C(C)C)C(C)C)C(C)C)C(=O)N[C@H](C(=O)N1CCC[C@H]1C(=O)N[C@@H](CC(C)C)C(=O)N[C@@H](Cc1ccc(O)cc1)C(=O)N[C@@H](CC(N)=O)C(N)=O)[C@@H](C)O,calmodulin 1-80 sites I and II,"calcium binding, Phe fluorescence titration",,"12 µM, pH 7.4, 22 °C, with: 6 µM calmodulin",,apparent ΔG2,-15.36 ± 0.11 kcal/mol
CC[C@H](C)[C@H](NC(=O)[C@H](CC(C)C)NC(=O)[C@H](Cc1c[nH]c2ccccc12)NC(=O)[C@H](CCC(N)=O)NC(=O)[C@@H](NC(=O)[C@H](Cc1ccccc1)NC(=O)[C@H](C)NC(=O)[C@H](CCCCNC(=O)COCCOCCNC(=O)COCCOCCNC(=O)CC[C@H](NC(=O)CCCCCCCCCCCCCCCCCCC(=O)O)C(=O)O)NC(=O)[C@H](CCC(N)=O)NC(=O)[C@H](C)NC(=O)[C@@H](NC(=O)[C@H](CCCCN)NC(=O)[C@H](CC(=O)O)NC(=O)[C@H](CC(C)C)NC(=O)C(C)(C)NC(=O)[C@@H](NC(=O)[C@H](CO)NC(=O)[C@H](Cc1ccc(O)cc1)NC(=O)[C@H](CC(=O)O)NC(=O)[C@H](CO)NC(=O)[C@@H](NC(=O)[C@H](Cc1ccccc1)NC(=O)[C@@H](NC(=O)CNC(=O)[C@H](CCC(=O)O)NC(=O)C(C)(C)NC(=O)[C@@H](N)Cc1ccc(O)cc1)[C@@H](C)O)[C@@H](C)O)[C@@H](C)CC)[C@@H](C)CC)C(C)C)C(=O)N[C@@H](C)C(=O)NCC(=O)NCC(=O)N1CCC[C@H]1C(=O)N[C@@H](CO)C(=O)N[C@@H](CO)C(=O)NCC(=O)N[C@@H](C)C(=O)N1CCC[C@H]1C(=O)N1CCC[C@H]1C(=O)N1CCC[C@H]1C(=O)N[C@@H](CO)C(N)=O,,,"healthy subjects, single ascending dose","2.5 mg, postbaseline",,treatment-emergent ADA positive subjects,16.7%
CC(=O)c1cc([N+](=O)[O-])c(Sc2cccc(Cl)c2Cl)s1,rep main protease,"viral replication, mKate2 reporter",SARS-CoV-2,20 µM,,inhibition,-1.82%
O=c1cc(-c2ccc(O)cc2)oc2cc(O)c(O)c(O)c12,Spike glycoprotein,"binding, BLI",,,,kon,95.3 M⁻¹ s⁻¹
CC(C)(C)NC(=O)N[C@H](C(=O)N1C[C@H]2[C@@H]([C@H]1C(=O)NC(CC1CCC1)C(=O)C(N)=O)C2(C)C)C(C)(C)C (stereo partly drawn),rep main protease,"reporter gene (mKate2), inhibitor",,20 µM,,inhibition,10.1%
Nc1ncnc2c1ncn2[C@H]1C[C@H](O)[C@@H](COP(=O)(O)OP(=O)(O)OP(=O)(O)O)O1,"Gag-Pol polyprotein, reverse transcriptase (gag-pol, Human immunodeficiency virus type 1 group M subtype B, UniProt P04585, K653T)",substrate,,"K66T mutant, with: matched T:A primer template",,Km,0.0866 ± 0.0138 µM
CCc1c(C(=O)C(N)=O)c2c(OCC(=O)O)cccc2n1Cc1ccccc1,Daboia russelii venom phospholipase A2,"enzyme activity, inhibitor",MP population,"0.01 µM, with: NOB substrate",relative to: venom alone,remaining activity,99.1% and 100% and 96.9%
Cc1[nH]nc2c(C(=O)N3CCC4(CCC[C@H]4NC(=O)C4=CN=C5NNN=C5C4)CC3)cccc12,rep main protease,"enzyme activity, inhibitor",,"5 µM, run 1",,inhibition,10.9%
COc1ccc2nc([S@@+]([O-])Cc3ncc(C)c(OC)c3C)[nH]c2c1,rep main protease,"reporter gene (mKate2), inhibitor",,20 µM,,inhibition,0.448%
O=C(NC[C@H](NC(=O)c1cncc2ccccc12)c1ccc2ccccc2c1)c1cccnc1,rep main protease,"enzyme activity, inhibitor",,"5 µM, run 1",,inhibition,12.6%
CCCCCCCCCC(C)CCC(C)C(=O)OCc1ccccc1 (stereo not drawn),"Spike glycoprotein, RBD (Severe acute respiratory syndrome coronavirus 2, UniProt P0DTC2)",binding,,concentration not given,,activity,inactive
O=C(/C=C/c1ccc2ncccc2c1)N1CCC[C@@]2(CCN(C(=O)c3cc(=O)[nH]c(=O)[nH]3)C2)C1,rep main protease,enzyme activity,,"5 µM, mean of runs",,inhibition,17.9%
Nc1ncnc2c([C@@H]3N[C@H](CO)[C@@H](O)[C@H]3O)c[nH]c12,Zaire ebolavirus,"viral replication, inhibitor",human Macrophage,25 µM,,inhibition,24%

# Some of these lines once more:
SMILES,target or system,assay,test system,conditions,scale,quantity,value
CCN(CC)c1nc(C)cc(OP(=S)(OC)OC)n1,"uncharacterized protein (Anopheles coluzzii, UniProt A0A6E8VQK1)","enzyme activity, inhibitor",Sf9 cell homogenate,"2.294 µM, 0.1667 h, with: α-naphthyl acetate substrate",relative to: no inhibitor,remaining activity,108%
